Published values collected from several papers.
Every numbered part comes from another study and shows a few of its results, in no order.

Block 1 — method: aptamer microarray, sandwich; molecule type: DNA with 2'F-ANA; medium: in vitro; concentration: 200 nM; with: Cy3 exosite-II aptamer, 400 nM; direction: higher = stronger binding; sequence: GGTTGGTGTGGTTGG
Target: Prothrombin, mature alpha-thrombin (F2, Homo sapiens, UniProt P00734)
Notes: whole 15-mer aptamer, many near background
For `2'F-ANA at 1 2 4 5 9 10 13 15`, “mean fluorescence intensity” read 63.9 a.u.
For `2'F-ANA at 1 2 3 4 5 7 15`, “mean fluorescence intensity” read 62.7 a.u.
`2'F-ANA at 2 3 4 6 9 10 12 13` — result for “mean fluorescence intensity”: 254 a.u.
`2'F-ANA at 2 4 5 6 7 8 11 12 13 15`: “mean fluorescence intensity” 80.7 a.u.
For `2'F-ANA at 5 6 8 9 10 11 12`, “mean fluorescence intensity” read 68 a.u.
Under “mean fluorescence intensity”, `2'F-ANA at 2 4 6 8 15` is recorded as 335 a.u.

Block 2 — method: protein-binding microarray; molecule type: double-stranded DNA, one strand shown; medium: in vitro; concentration: 2540 nM top; notes: 60-bp whole probe; with: salmon DNA 0.4 mg/ml; relative to: random background probes; direction: higher = stronger binding; shared flanks, not repeated: GCCTAGCAC … GTCTTGATTCGCTTGACGCTGCTG
Target: Interferon regulatory factor 3, full length, phosphomimetic (IRF3, Homo sapiens, UniProt Q14653, residues 1-427, S386D/S396D/S398D/S402D/T404D/S405D)
Target sequence (chain): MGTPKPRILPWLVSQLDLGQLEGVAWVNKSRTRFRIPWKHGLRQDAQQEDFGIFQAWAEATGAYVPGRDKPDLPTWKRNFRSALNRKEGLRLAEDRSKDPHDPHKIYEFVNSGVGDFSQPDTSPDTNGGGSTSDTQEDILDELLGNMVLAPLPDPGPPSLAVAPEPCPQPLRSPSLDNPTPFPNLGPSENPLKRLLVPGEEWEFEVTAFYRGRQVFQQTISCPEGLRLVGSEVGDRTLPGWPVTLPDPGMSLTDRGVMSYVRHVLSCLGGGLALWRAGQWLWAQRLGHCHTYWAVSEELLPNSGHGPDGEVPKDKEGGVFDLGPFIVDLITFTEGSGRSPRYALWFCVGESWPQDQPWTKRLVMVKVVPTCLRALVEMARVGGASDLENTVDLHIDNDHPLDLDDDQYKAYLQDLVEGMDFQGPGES
`TCATTTTTGGAATGTCTTACTGTGCTA`: “fitted relative affinity” 1.53 z-score.
`GACGGTTTCGACACTGGGGTCGTGCTA`: “fitted relative affinity” 3.3 z-score.
`TTAGGTTTCCTTCTCCTGTAGTGCTAG`: “fitted relative affinity” 10.3 z-score.
For `TTAGATTTCGGGTACCGATTAGTGCTA`, “fitted relative affinity” read 2.13 z-score.
Under “fitted relative affinity”, `TGAAATTTTAATAACACAGAGTGCTAG` is recorded as -0.0662 z-score.
`TTAGGACTGCTATTGCTTTAGTGCTAG`: “fitted relative affinity” -0.531 z-score.
`TTAGATTTCAGTTTCGCTTAGTGCTAG`: “fitted relative affinity” 5.42 z-score.
`CAAACACTGGTTTTTACTTTGTGCTAG`: “fitted relative affinity” 1.47 z-score.

Block 3 — method: RNA Bind-n-Seq; molecule type: RNA; medium: in vitro; concentration: 365 nM; relative to: no-protein control; direction: higher = stronger binding
Target: RNA binding protein fox-1 homolog 2, RRM domain, GST-SBP tag (RBFOX2, Homo sapiens, UniProt O43251-10, residues 100-194)
Notes: natural RNA segment, single round, ends assumed
Residues (chain): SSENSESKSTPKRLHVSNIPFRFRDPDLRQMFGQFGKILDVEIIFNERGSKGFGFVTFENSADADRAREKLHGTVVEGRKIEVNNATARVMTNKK
`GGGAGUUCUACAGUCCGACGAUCGCACCACAGCUACUCAAGAAGAUCAAAUUCAGGACAUAAACUUUAUUGAACAUAAUAACCAGUGUUUUUUAAAGACUUUUUUGUCAGGGUGCAGUAAAAUUCUCCAAUUAUGGAAUUCUCGGGUGCCAA`: “RBNS enrichment (R)” 0.365.
Under “RBNS enrichment (R)”, `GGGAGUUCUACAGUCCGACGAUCAACAACUUGAAGAUUGUAGCAAUAAGCUGGACUAGUGUCCUAAAAAUGGCUAACUGAUGAAUUAGAAGCCAUCUGACAGCAGGCCACUAGUGACAGUUUCUUUUGUGUUCUGGAAUUCUCGGGUGCCAA` is recorded as 0.272.
`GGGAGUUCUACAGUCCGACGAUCUCGAGGAACUCCUGGAGGGUUUGAGCGUCUGGAAACUCUCUGCUCUGACCCGAGGAAGCACCCUCCUGACGCCGCCUUCCUCCGGUUAUUGAAAGGACGCCUCAGAAAUGUGGAAUUCUCGGGUGCCAA`: “RBNS enrichment (R)” 0.311.
For `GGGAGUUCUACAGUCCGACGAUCAGAUGCAGUUUGGAGAGUCAGAUCUUUCUCCUUGAAUAUCUUUCGAUAAACAACAAGGUGGUGUGAUCUUAAUAUAUUUGAAAAAAACUUCAUUCUCGUGAGUCAUUUAAUGGAAUUCUCGGGUGCCAA`, “RBNS enrichment (R)” read 0.316.
Under “RBNS enrichment (R)”, `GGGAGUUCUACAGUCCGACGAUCACUCAGGCCAGGGCCCUCCUGACGACGGUUUCCUGACUAGAAGAAAGGGACGUGGGUUUGAAGGCAGCAGCAGUGCUUACUUAACCUGCAUUUCAGCAUUUGGCAAGUUCUGGAAUUCUCGGGUGCCAA` is recorded as 0.32.
`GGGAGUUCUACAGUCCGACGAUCGUGACAUGUAGAAAAAUUUACAGUAAACUGAAAUGACCAUUUGUCAAUGCAUUGGUGCAUAGGAGUUACUAGGGCUACUUCUGGAAGCCAAAAUAGAAUAGCAUCUCCAUUGGAAUUCUCGGGUGCCAA`: “RBNS enrichment (R)” 0.74.
For `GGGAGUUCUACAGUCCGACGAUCCUCCAUCCUAGGGCAACCUGGGGCAGACAGGCCUGGUGGGGGGUGGGGAAACCUCCUUCCACCUGAGCUUGCUUGAAGGGACCCAGAGUCUUUGGGCCCAGAUCUUUAAAUGGAAUUCUCGGGUGCCAA`, “RBNS enrichment (R)” read 0.226.

Mixed results
The fold induction of `PhoQ, residues 284 288 289 292 302 303 TTSMTC` is reported as 8.95 (PhoP, residues 12 14 15 18 19 NMSFL (Escherichia coli, UniProt P23836); Sort-seq, measured: YFP reporter; E. coli; PhoQ-PhoP variant library, with: 10 µM Mg2+; relative to: high Mg2+ state, higher = stronger signaling).

A few entries again (block 3):
Under “RBNS enrichment (R)”, `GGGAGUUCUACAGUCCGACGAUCAACAACUUGAAGAUUGUAGCAAUAAGCUGGACUAGUGUCCUAAAAAUGGCUAACUGAUGAAUUAGAAGCCAUCUGACAGCAGGCCACUAGUGACAGUUUCUUUUGUGUUCUGGAAUUCUCGGGUGCCAA` is recorded as 0.272.
